Results of several laboratories.
Lines come from different studies, so protocols differ. ± marks the error that the study gave.
lasR: Transcriptional activator protein LasR (lasR, Pseudomonas aeruginosa, UniProt P25084)
Chain of UniProt P26718 (whole entry, looked up): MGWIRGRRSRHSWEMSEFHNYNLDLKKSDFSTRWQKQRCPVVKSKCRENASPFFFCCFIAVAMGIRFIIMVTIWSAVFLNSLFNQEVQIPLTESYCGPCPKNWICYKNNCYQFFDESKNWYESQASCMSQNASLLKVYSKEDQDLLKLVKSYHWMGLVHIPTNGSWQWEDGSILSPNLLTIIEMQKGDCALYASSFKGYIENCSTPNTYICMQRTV
Chain of UniProt P61073 (whole entry, unmodified, looked up): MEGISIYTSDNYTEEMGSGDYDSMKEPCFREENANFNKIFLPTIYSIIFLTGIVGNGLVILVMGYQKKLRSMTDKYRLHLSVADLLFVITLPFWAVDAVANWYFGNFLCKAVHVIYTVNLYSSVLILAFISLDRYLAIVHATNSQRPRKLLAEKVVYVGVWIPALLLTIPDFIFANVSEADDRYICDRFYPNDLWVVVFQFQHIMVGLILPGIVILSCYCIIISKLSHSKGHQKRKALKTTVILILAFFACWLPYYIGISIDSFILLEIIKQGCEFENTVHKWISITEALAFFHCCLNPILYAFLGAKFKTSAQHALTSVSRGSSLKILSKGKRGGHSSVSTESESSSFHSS
Chain of UniProt P00691 (whole entry, looked up): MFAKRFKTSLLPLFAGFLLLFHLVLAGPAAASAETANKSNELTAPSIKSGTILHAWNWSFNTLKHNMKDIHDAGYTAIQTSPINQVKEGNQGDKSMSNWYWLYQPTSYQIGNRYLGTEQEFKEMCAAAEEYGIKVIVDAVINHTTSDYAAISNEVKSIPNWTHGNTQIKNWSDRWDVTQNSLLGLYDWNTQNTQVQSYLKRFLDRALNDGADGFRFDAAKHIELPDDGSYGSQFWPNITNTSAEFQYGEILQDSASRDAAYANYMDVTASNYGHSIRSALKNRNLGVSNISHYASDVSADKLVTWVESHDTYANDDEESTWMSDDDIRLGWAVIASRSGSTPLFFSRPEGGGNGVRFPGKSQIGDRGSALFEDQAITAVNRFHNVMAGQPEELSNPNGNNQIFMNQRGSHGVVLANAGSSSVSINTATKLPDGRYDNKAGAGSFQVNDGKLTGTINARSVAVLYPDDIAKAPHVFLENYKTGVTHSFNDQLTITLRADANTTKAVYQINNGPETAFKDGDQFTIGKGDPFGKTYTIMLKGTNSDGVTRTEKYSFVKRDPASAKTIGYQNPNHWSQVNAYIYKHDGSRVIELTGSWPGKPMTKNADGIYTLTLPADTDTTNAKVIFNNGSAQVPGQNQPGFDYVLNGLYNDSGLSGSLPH
Chain of UniProt P56494 (whole entry, looked up): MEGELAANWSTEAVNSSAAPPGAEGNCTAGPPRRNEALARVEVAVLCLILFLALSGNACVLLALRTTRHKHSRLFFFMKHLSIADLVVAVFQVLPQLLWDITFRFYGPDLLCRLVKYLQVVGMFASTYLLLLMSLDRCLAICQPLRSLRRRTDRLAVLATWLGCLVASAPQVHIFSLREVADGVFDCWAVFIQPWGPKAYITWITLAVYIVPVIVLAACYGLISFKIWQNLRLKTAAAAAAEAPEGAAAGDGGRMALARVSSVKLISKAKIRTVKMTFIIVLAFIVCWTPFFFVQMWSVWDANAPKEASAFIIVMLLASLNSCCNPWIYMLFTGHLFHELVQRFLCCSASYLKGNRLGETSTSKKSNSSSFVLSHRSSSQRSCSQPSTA
Chain of UniProt Q6TCG5 (whole entry, looked up): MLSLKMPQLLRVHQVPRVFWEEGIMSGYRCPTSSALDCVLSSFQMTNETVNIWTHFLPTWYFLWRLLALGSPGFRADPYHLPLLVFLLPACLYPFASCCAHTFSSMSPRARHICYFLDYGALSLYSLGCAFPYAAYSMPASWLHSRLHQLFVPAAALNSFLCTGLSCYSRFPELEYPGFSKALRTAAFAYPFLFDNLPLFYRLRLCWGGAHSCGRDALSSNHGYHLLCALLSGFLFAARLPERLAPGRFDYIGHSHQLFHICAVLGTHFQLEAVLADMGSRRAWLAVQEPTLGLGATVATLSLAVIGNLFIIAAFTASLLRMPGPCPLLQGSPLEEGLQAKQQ
Chain of UniProt Q9BV86 (whole entry, looked up): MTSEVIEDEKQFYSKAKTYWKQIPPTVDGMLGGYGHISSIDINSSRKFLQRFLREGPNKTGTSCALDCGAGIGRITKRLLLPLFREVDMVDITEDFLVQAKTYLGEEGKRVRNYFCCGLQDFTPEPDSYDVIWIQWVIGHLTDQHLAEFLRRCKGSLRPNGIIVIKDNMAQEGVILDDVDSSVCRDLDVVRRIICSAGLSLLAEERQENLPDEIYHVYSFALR
Chain of UniProt Q01827 (whole entry, looked up): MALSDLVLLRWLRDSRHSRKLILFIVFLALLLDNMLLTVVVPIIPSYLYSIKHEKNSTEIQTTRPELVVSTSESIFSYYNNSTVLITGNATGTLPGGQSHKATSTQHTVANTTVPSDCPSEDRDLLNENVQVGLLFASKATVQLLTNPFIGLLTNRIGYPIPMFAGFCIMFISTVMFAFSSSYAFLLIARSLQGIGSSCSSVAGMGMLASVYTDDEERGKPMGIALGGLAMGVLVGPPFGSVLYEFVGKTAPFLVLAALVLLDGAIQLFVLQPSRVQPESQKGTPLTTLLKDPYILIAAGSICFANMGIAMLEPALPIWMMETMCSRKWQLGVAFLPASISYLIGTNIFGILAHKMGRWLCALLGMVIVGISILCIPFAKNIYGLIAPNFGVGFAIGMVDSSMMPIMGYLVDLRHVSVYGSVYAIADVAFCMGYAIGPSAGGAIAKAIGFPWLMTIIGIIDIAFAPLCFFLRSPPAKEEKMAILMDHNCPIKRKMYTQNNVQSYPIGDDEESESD
Chain of UniProt P24524 (whole entry, looked up): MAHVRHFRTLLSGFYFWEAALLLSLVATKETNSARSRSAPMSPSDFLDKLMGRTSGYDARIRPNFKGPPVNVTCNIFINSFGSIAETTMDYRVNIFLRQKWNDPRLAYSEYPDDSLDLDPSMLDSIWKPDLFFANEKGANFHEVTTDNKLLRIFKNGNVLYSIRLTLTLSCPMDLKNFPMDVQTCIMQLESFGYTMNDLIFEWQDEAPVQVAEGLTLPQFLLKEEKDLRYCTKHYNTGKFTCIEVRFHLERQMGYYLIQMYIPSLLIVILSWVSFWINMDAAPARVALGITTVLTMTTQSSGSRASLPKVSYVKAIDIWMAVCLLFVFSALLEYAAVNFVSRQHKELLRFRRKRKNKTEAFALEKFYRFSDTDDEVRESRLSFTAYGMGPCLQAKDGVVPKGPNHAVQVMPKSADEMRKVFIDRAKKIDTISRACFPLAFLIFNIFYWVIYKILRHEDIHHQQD

SMILES | target | assay | system | conditions | scale | quantity | value
C=C(C)[C@@H]1CCC(C)=C[C@H]1c1ccc(CCCCC)cc1O | Glra3 (Rattus norvegicus, UniProt P24524) | glycine current, positive allosteric modulator, whole-cell patch clamp | HEK293 | 1 µM | – | potentiation | 989 ± 171%
NCc1cc(C(F)(F)F)cc(C(F)(F)F)c1 | Amyloid-beta precursor protein, amyloid-beta 1-40 oligomers (APP, Homo sapiens, UniProt P05067) | binding, STD NMR | – | highest STD | – | STD NMR signal | 8.13%
CN(C)C(=O)[C@@H](NC(=O)c1cnccc1-c1ccc(C(F)(F)F)cc1)c1cccc(C(F)(F)F)c1 | NKG2-D type II integral membrane protein, with MICA (KLRK1, Homo sapiens, UniProt P26718) | cellular TR-FRET binding | – | pIC50 minus ChromLogD | – | lipophilic ligand efficiency | 3.4
CCN(CC)CCOc1ccc(-c2nnn(Cc3ccc(OC)cc3)c2N)cc1 | Phosphatidylethanolamine-binding protein 1, with c-Raf (Homo sapiens, UniProt P30086) | RKIP-c-Raf interaction, co-immunoprecipitation | HEK293T | 10 µM, 4 h | – | binding | no effect
O=C(Cn1cc(-c2cc(F)cc(F)c2)nn1)N[C@H]1CCOC1=O | lasR | reporter gene, agonist | Escherichia coli, DH5α pJN105L/pSC11 | 100 µM | reference: OdDHL at same concentration | activation | 0%
CC(C)C[C@@H](N)C(=O)NCC(=O)N[C@H](C)C(=O)N[C@H](CO)C(=O)N[C@H](Cc1c[nH]c2ccccc12)C(=O)N[C@H](Cc1c[nH]cn1)C(=O)N[C@H](CCCNC(=N)N)C(=O)N1CCC[C@@H]1C(=O)N[C@H](CC(=O)O)C(=O)N[C@H](CCCCN)C(=O)N[C@H](CSSC[C@@H](NC(=O)[C@@H](CCCCN)NC(=O)[C@@H](CC(=O)O)NC(=O)[C@H]1CCCN1C(=O)[C@@H](CCCNC(=N)N)NC(=O)[C@@H](Cc1c[nH]cn1)NC(=O)[C@@H](Cc1c[nH]c2ccccc12)NC(=O)[C@@H](CO)NC(=O)[C@@H](C)NC(=O)CNC(=O)[C@H](N)CC(C)C)C(=O)N[C@H](C)C(=O)N[C@H](CC(C)C)C(=O)NCC(=O)N[C@H](Cc1ccc(O)cc1)C(=O)N[C@H](CCC(N)=O)C(=O)N[C@H](CCCCN)C(=O)N[C@H](CCCNC(=N)N)C(=O)N1CCC[C@@H]1C(=O)N[C@H](CC(C)C)C(=O)N1CCC[C@@H]1C(N)=O)C(=O)N[C@H](C)C(=O)N[C@H](CC(C)C)C(=O)NCC(=O)N[C@H](Cc1ccc(O)cc1)C(=O)N[C@H](CCC(N)=O)C(=O)N[C@H](CCCCN)C(=O)N[C@H](CCCNC(=N)N)C(=O)N1CCC[C@@H]1C(=O)N[C@H](CC(C)C)C(=O)N1CCC[C@@H]1C(N)=O | C-X-C chemokine receptor type 4 (CXCR4, Homo sapiens, UniProt P61073, Y45A) | – | 293 cells | 300 nM, together with: 12G5 antibody 5 µg/mL | reference: wild type | binding decrease | 20%
N=C(N)NCCC[C@H](NC(=O)[C@H](CCCNC(=N)N)NC(=O)[C@H](CCCNC(=N)N)NC(=O)[C@@H]1CCCN1C(=O)CNCCCN(CC[C@H](N)C(=O)O)C[C@H]1O[C@@H](n2cnc3c(N)ncnc32)[C@H](O)[C@@H]1O)C(=O)N[C@@H](CO)C(=O)O | N-terminal Xaa-Pro-Lys N-methyltransferase 1 (Homo sapiens, UniProt Q9BV86) | enzyme activity, inhibitor, MALDI-MS | – | 5 µM, 20 min, together with: RCC1-10 peptide | – | trimethylation | inhibited
CC(=O)NC(Cc1ccc(Br)c(Cl)c1)C(=O)N[C@@H](C)C(=O)N1CCC[C@H]1C(=O)N1CCC[C@H]1C(=O)N[C@@H](CCC(=O)O)C(=O)N[C@@H](Cc1c[nH]cn1)C(=O)N[C@@H](CO)C(=O)N[C@H](C(=O)N[C@@H](C)C(N)=O)[C@@H](C)OP(=O)(O)O (some centres unmarked) | Dual specificity tyrosine-phosphorylation-regulated kinase 1B (DYRK1B, Homo sapiens, UniProt Q9Y463) | – | – | 10 µM | – | inhibition | 6.83 ± 0.25%
CC[C@H](C)[C@H](NC(=O)[C@H](Cc1c[nH]cn1)NC(=O)[C@H](CCCCNC(=O)[C@@H](NC(=O)[C@H](CCCCN)NC(=O)CSC[C@H](NC(=O)[C@H](Cc1ccccc1)NC(=O)[C@H](CCCCNC(=O)[C@H](CC(C)C)NC(=O)[C@@H]1CCCN1C(=O)[C@H](CCCCN)NC(=O)c1ccc(O[C@@H]2O[C@H](CO)[C@H](O)[C@H](O)[C@H]2O)cc1)NC(=O)[C@H](CC(C)C)NC(=O)[C@@H]1CCCN1C(=O)[C@H](CCCCN)NC(=O)C[C@@H]1O[C@@H](C)[C@@H](O)[C@@H](O)[C@@H]1O)C(N)=O)[C@@H](C)CC)NC(=O)[C@@H](NC(=O)[C@H](CCCCN)NC(=O)CSC[C@H](NC(=O)[C@H](Cc1ccccc1)NC(=O)[C@H](CCCCNC(=O)[C@H](CC(C)C)NC(=O)[C@@H]1CCCN1C(=O)[C@H](CCCCN)NC(=O)c1ccc(O[C@@H]2O[C@H](CO)[C@H](O)[C@H](O)[C@H]2O)cc1)NC(=O)[C@H](CC(C)C)NC(=O)[C@@H]1CCCN1C(=O)[C@H](CCCCN)NC(=O)C[C@@H]1O[C@@H](C)[C@@H](O)[C@@H](O)[C@@H]1O)C(N)=O)[C@@H](C)CC)C(N)=O | PA-I galactophilic lectin (lecA, Pseudomonas aeruginosa, UniProt Q05097) | binding, isothermal titration calorimetry | – | divided by galactoside copies | reference: monovalent galactoside KD over ligand KD | relative potency per galactoside | 20
O=C(N[C@H]1CCOC1=O)c1ccc(-c2cn(-c3ccc4[nH]ccc4c3)nn2)cc1 | lasR | reporter gene, agonist | Escherichia coli, DH5α pJN105L/pSC11 | 100 µM | reference: OdDHL at same concentration | activation | 1%
O=[N+]([O-])c1ccc(OP(=O)(O)O)cc1 | Alkaline phosphatase PafA (pafA, Elizabethkingia meningoseptica, UniProt Q9KJX5, R164A) | substrate | Chryseobacterium meningosepticum | – | – | Km | 51 µM
CC(C)P(=[Se])(NP(=[Se])(C(C)C)C(C)C)C(C)C | Alpha-amylase (Bacillus subtilis, UniProt P00691) | binding, FRET | – | 298 K | – | donor–acceptor distance | 3.42 nm
COc1cc2c(cc1O)oc(=O)c1c3cc(O)c(O)cc3oc21 | Genome polyprotein, NS5B polymerase (Hepatitis C virus genotype 1b, UniProt P26663) | RNA polymerase activity, uncompetitive inhibitor | – | together with: poly rA/U12 varied, UTP 25 µM | – | Ki | 37.5 µM
CN1C(=O)[C@H](Cc2ccccc2)N(C)C(=O)[C@@H]2[C@H]1CCN2Cc1cc(Cl)cc(Cl)c1 | NKG2-D type II integral membrane protein (KLRK1, Homo sapiens, UniProt P26718) | surface plasmon resonance | – | – | – | dissociation rate constant | 0.0369 s⁻¹
CC[C@H](C)[C@@H]1NC(=O)[C@H](Cc2ccc(O)cc2)NC(=O)[C@@H](N)CSSC[C@@H](C(=O)N2CCC[C@H]2C(=O)N[C@@H](CC(C)C)C(=O)NCC(N)=O)NC(=O)[C@H](CC(N)=O)NC(=O)[C@H](CCC(N)=O)NC1=O | Oxytocin receptor (Macaca mulatta, UniProt P56494) | Ca2+ mobilisation, agonist | CHO cells | – | – | Emax | 4090 RFU
C[C@@]1(O)CC[C@H]2[C@H](CC[C@@H]3[C@@H]2CC[C@]2(C)[C@@H](C(=O)Cn4cccn4)CC[C@@H]32)C1 | Membrane progestin receptor delta (Paqr6, Mus musculus, UniProt Q6TCG5) | pPKA/PKA immunoblot | MDA-MB-231 expressing Paqr6-GFP | 10 nM, 20 min | reference: control | PKA activation | 99 ± 6.61%
CN1C(CCc2ccccc2)CCC1CCc1ccccc1 (centres unmarked) | Synaptic vesicular amine transporter (Slc18a2, Rattus norvegicus, UniProt Q01827) | dopamine uptake | rat striatal synaptic vesicles | together with: [3H]dopamine | – | maximal inhibition | 100%
CC(=O)N[C@@H](CC(C)C)C(=O)N[C@@H](C)C(=O)N[C@@H](C)C(=O)NN(CCC(=O)N(C)C)C(=O)CCl | Genome polyprotein, 3C protease (Human hepatitis A virus genotype IB, UniProt P08617, C1543S) | inhibitor | Hepatitis A virus | – | – | kinact/KI | 680 M⁻¹ s⁻¹
CC(C)C[C@@H](N)C(=O)NCC(=O)N[C@H](C)C(=O)N[C@H](CO)C(=O)N[C@H](Cc1c[nH]c2ccccc12)C(=O)N[C@H](Cc1c[nH]cn1)C(=O)N[C@H](CCCNC(=N)N)C(=O)N1CCC[C@@H]1C(=O)N[C@H](CC(=O)O)C(=O)N[C@H](CCCCN)C(=O)N[C@H](CCCCN)C(=O)N[C@H](CCCNC(=N)N)C(=O)NCCCCCC(=O)N[C@@H](CCCCN)C(=O)N[C@@H](CCCNC(=N)N)C(=O)N[C@@H](CCCCN)C(=O)N[C@H](C(=O)N[C@@H](CC(N)=O)C(=O)N[C@@H](CC(N)=O)C(=O)N[C@@H](CC(N)=O)C(=O)N1CCC[C@H]1C(=O)N[C@@H](CCCNC(=N)N)C(=O)N[C@H](C(=O)N[C@@H](CS)C(N)=O)[C@@H](C)O)[C@@H](C)O | C-X-C chemokine receptor type 4 (CXCR4, Homo sapiens, UniProt P61073, R30A) | antibody 12G5 binding | – | 200 nM, R30A mutant vs wild type | – | binding affinity change | increased
COP(=O)(O)O | Alkaline phosphatase PafA (pafA, Elizabethkingia meningoseptica, UniProt Q9KJX5, K162A) | – | Chryseobacterium meningosepticum | pH 8.0 | reference: wild type over mutant kcat/KM | relative catalytic efficiency | 4.7e+06

Excerpt of the above:
SMILES | target | assay | system | conditions | scale | quantity | value
CC[C@H](C)[C@@H]1NC(=O)[C@H](Cc2ccc(O)cc2)NC(=O)[C@@H](N)CSSC[C@@H](C(=O)N2CCC[C@H]2C(=O)N[C@@H](CC(C)C)C(=O)NCC(N)=O)NC(=O)[C@H](CC(N)=O)NC(=O)[C@H](CCC(N)=O)NC1=O | Oxytocin receptor (Macaca mulatta, UniProt P56494) | Ca2+ mobilisation, agonist | CHO cells | – | – | Emax | 4090 RFU
C[C@@]1(O)CC[C@H]2[C@H](CC[C@@H]3[C@@H]2CC[C@]2(C)[C@@H](C(=O)Cn4cccn4)CC[C@@H]32)C1 | Membrane progestin receptor delta (Paqr6, Mus musculus, UniProt Q6TCG5) | pPKA/PKA immunoblot | MDA-MB-231 expressing Paqr6-GFP | 10 nM, 20 min | reference: control | PKA activation | 99 ± 6.61%
